Measurements pooled from the literature.
A part holds a random share of what one study measured. Positions count from the first letter of the parent shown.

Sample 1
Target: Prothrombin, mature alpha-thrombin (F2, Homo sapiens, UniProt P00734)
Technique: aptamer microarray, sandwich
Molecule type: DNA with 2'F-ANA
Sample: in vitro
Tested at: 200 nM
Notes: whole 15-mer aptamer, many near background
Together with: Cy3 exosite-II aptamer, 400 nM
Reading: higher = stronger binding
Quantity: mean fluorescence intensity
Strand: GGTTGGTGTGGTTGG
2'F-ANA at 1 2 3 5 6 7 9 12 14: 46.9 a.u.
2'F-ANA at 2 3 5 7 9 10 11 12 13: 62 a.u.
2'F-ANA at 1 3 4 7 10 13 14 15: 245 a.u.
2'F-ANA at 2 4 5 6 7 8 9 10 11 12 14: 54.5 a.u.
2'F-ANA at 2 4 6 12 13 14 15: 94.2 a.u.
2'F-ANA at 1 2 4 7 12 13 14: 70.9 a.u.
2'F-ANA at 2 3 7 8 9 10 15: 435 a.u.
2'F-ANA at 1 2 4 6 8 10 13 15: 52.8 a.u.
2'F-ANA at 4 5 7 10 11 12 15: 49.8 a.u.
2'F-ANA at 4 5 6 10 12 14 15: 47.5 a.u.
2'F-ANA at 1 2 6 7 10 11: 51 a.u.
2'F-ANA at 7 8 11 12 14: 264 a.u.
2'F-ANA at 3 4 7 9 10 14: 200 a.u.
2'F-ANA at 2 3 4 5 7 9 10 12 13: 51 a.u.
2'F-ANA at 8 12 15: 873 a.u.
2'F-ANA at 2 6 7 9 10 11 15: 110 a.u.
2'F-ANA at 1 4 5 7 8 12 14 15: 47.9 a.u.
2'F-ANA at 2 3 5 6 7 8 9 10 12 14: 61.4 a.u.
2'F-ANA at 1 2 3 4 7 9 10 11 13 14 15: 53.9 a.u.
2'F-ANA at 1 3 6 10 11 13 14 15: 56.9 a.u.
2'F-ANA at 1 2 3 4 5 6 8 10 12: 67 a.u.
2'F-ANA at 1 2 3 4 6 12 14 15: 88.1 a.u.
2'F-ANA at 1 2 3 5 6 7 9 10 15: 62.2 a.u.
2'F-ANA at 3 5 6 8 9 10 12 13 14 15: 49.8 a.u.
2'F-ANA at 4 6 7 10 11 12 13: 82.8 a.u.

Sample 2
Target: Ras GTPase-activating protein-binding protein 1, full length (G3BP1, Homo sapiens, UniProt Q13283)
UniProt Q13283, sequence (whole entry, looked up): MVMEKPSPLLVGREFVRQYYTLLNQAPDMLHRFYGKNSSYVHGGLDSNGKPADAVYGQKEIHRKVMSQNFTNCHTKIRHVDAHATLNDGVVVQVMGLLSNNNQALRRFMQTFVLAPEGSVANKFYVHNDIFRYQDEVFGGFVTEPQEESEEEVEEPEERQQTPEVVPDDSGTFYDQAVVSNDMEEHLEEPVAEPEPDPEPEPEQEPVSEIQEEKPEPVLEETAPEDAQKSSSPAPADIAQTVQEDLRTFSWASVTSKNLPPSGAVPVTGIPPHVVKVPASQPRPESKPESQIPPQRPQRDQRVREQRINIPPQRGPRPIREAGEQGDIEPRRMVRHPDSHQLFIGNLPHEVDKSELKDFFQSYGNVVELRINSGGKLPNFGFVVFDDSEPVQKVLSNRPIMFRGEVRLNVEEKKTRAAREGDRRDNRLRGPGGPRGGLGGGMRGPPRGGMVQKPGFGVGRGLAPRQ
Technique: RNA Bind-n-Seq
Molecule type: RNA
Sample: in vitro
Tested at: 200 nM
Notes: whole 134-nt RNA, ends assumed
Together with: 150 mM KCl
Baseline: input library
Reading: higher = stronger binding
Quantity: log2 enrichment
Shared flanks, not repeated: GGGAGUUCUACAGUCCGACGAUC … UGGAAUUCUCGGGUGUCAAGG
UCCUGUGCUACACAUCGUAUGUACCGAAUCGGAAAAAAGGGAAAAAAGGGGAAAAAAGGGAAAGUAUUAUGUUACGCCGUUCGGAUCUGC: -0.404
GUCCUGUGCUACACAUCGUAUGUACCGAAUCGGGGUUUUUGGGUUUUUGGGUUUUUGGAAAGUAUUAUGUUACGCCGUUCGGAUCUGCAC: -0.59
UCCUGUGCUACACAUCGUAUGUACCGAAUCAAAUUUUUUUAAACCCCCCCAAACCCAAAAAAGUAUUAUGUUACGCCGUUCGGAUCUGCA: -0.0224
UCUCCCAUCAAAGGACGUGCACAGCCUUAUGAUCCCAAUUUUUACGAUGAAACCUAUGAUUAUGGUGGUUUUACAAUGAUGUUUGAUGAC: 1.72
CUGUGCUACACAUCGUAUGUACCGAAUCAAACCCCCCCAAAUUUUUUUAAACCCCCCCAAAAAAGUAUUAUGUUACGCCGUUCGGAUCUG: 1.03
UCCUCAAGUCCUGUGCUACACAUCGUAUGUACCGAAUCGGGGUGGGUGGUGGAAAGUAUUAUGUUACGCCGUUCGGAUCUGCACUUCCAG: 0.682
ACCAUGCAGGUGGGCAUCUUUGGGAAGUGGGGCAAGGGGGGGAUAGGGAGGGGGGUAACACUUUGGGAACAGGUGGUCCCAGGUCCUUUC: 1.2
UUUUAAUUUGUUUGUCUCUCAUGAAACUAUGGUCUUUUAAAAAUUAAAGGUUUUUUUUUUCCCCUUAGACGAAACUGCAAAGGAAAUCCG: -0.645
ACCAUGCAGGUGGGCAUCUUUGGGAAGUGGGGCAAGGGGGGGAUAGGGAAGGGGGUAACACUUUGGGAACAGGUGGUCCCAGGUCGUUUC: 1.19
UGUGCUACACAUCGUAUGUACCGAAUCGGGGAAAAAAAGGGAAAAAAAGGGAAAAAAAGGGGAAAGUAUUAUGUUACGCCGUUCGGAUCU: -0.626
AGGAAAAUGUUUAUAGGAGGCCUUAGCUGGGACACUACAAAGAAAGAUCUGAAGGACUACUUUUCCAAAUUUGGUGAAGUUGUAGACUGC: -0.682
CCUCAAGUCCUGUGCUACACAUCGUAUGUACCGAAUCGGCGGGCGGGGCGGGAAAGUAUUAUGUUACGCCGUUCGGAUCUGCACUUCCAG: 0.608
GUCCUGUGCUACACAUCGUAUGUACCGAAUCGGGGAGGGGUUUUUGGGGUUUUUGGGGAAAGUAUUAUGUUACGCCGUUCGGAUCUGCAC: 0.321
AAGUCCUGUGCUACACAUCGUAUGUACCGAAUCGGGGCCCCGGGCCCCGGCCCCGGAAAGUAUUAUGUUACGCCGUUCGGAUCUGCACUU: -1.03

Sample 3
Target: Histone acetyltransferase KAT6A, winged helix 1, GST fusion (KAT6A, Homo sapiens, UniProt Q92794, residues 1-85)
Technique: protein binding microarray
Molecule type: double-stranded DNA, one strand shown
Sample: in vitro
Tested at: not given
Notes: 8-mer, flanks averaged, mean of 2 arrays, mostly near background
Baseline: not given
Reading: higher = stronger binding
Quantity: E-score
Target sequence (chain): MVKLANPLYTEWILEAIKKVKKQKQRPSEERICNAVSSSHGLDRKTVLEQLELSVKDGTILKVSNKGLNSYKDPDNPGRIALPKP
ACAGTTCG: 0.117
CTGCTAAG: -0.184
CCCGCACC: 0.215
CTAGAAAA: -0.117
AAGAGCAG: 0.0251
CGTTACCC: 0.146
CAGACAAG: -0.146
ATGGTCGC: 0.169
GGCAGGGA: -0.107
CGTCTAAC: 0.164
CATGGAGG: -0.148
GCACACAC: -0.0624
GGAGCAAC: 0.0655
GAGACAGC: -0.0196
CAACGTTA: 0.0492
CCCCTTTA: -0.142
ATCACCAG: -0.111
GAAGACGC: 0.0975
CATGGTTC: 0.0166
TGCTAGAA: -0.0215
CACTGTCC: 0.0552
ATGGCGAG: -0.162
CCTGACAC: -0.196
AGCGTAGG: 0.119
ATATGGAT: -0.16

Sample 4
Target: CCNB2, cyclin fold, Cln2 fusion (human)
Technique: yeast growth competition, sequencing
Sample: yeast
Notes: weak parent motif
Baseline: not given
Reading: higher = stronger binding
Quantity: normalised enrichment score
Starting sequence: TICRR docking peptide (human); TKVRRNLFNQELL; partner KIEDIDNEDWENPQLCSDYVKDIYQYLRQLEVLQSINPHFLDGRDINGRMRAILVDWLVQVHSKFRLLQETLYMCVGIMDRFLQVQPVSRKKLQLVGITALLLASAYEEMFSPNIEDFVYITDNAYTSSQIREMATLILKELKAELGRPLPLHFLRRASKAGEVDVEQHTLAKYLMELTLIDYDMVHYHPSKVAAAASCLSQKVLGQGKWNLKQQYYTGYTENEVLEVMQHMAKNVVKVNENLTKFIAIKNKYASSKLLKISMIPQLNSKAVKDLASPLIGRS
TKVRANAFNQELL [R5A L7A]: 0.167
TKVRRNLANQELL [F8A]: -0.358
TKVRRNLFAQELL [N9A]: 1.34
TKVRRNLFNAELL [Q10A]: 0.414
TKVRKNLLNQELL [R5K F8L]: 0.578
TKVRRNAFNQELL [L7A]: 0.595
TKVRANLFNQELL [R5A]: 0.701
TKVRRNLFNQELA [L13A]: 0.698
TKVRRNLLNQELL [F8L]: 0.623
TKARRNLFNQELL [V3A]: -0.139

Sample 5
Target: Interferon regulatory factor 5, full length, phosphomimetic (IRF5, Homo sapiens, UniProt Q13568-2, residues 1-514, S451D/S453D/S456D/S462D)
Technique: protein-binding microarray
Molecule type: double-stranded DNA, one strand shown
Sample: in vitro
Tested at: 940 nM top
Notes: 60-bp whole probe
Together with: salmon DNA 0.4 mg/ml
Baseline: random background probes
Reading: higher = stronger binding
Quantity: fitted relative affinity
Shared flanks, not repeated: GCCTAGCAC … GTCTTGATTCGCTTGACGCTGCTG
GACGATATCGGGCCTGGAGACGTGCTA: -0.515 z-score
TAAGGACTGCTACTGCTTTAGTGCTAG: -0.492 z-score
GACGATTTCGGGTATAGAGACGTGCTA: 0.79 z-score
TCATTATTCTAGCCTCCAACTGTGCTA: 1.11 z-score
CACAGAATCCCCTTCTACTCGTGCTAG: 0.441 z-score
TTAGAACCGAGTATCGATTAGTGCTAG: 4.06 z-score
TTAGAACTGGGGTTTCGTTTAGTGCTA: 3.44 z-score
AGCAGGGCTGATGCTCCCCTGTGCTAG: -1.21 z-score
GACCATTTCAGTCTCGAGACGTGCTAG: 1.93 z-score
TTAGATTTCGGGTTTCGATTAGTGCTA: 5.74 z-score
CACGGTCTCCTTCTCCTGACGTGCTAG: 0.558 z-score
TTAGAACTGATACTGGATTAGTGCTAG: 0.115 z-score
TCAAATCTCACTCTGTCACTGTGCTAG: 0.905 z-score
GACGATTTCAGACTGGAAACGTGCTAG: -0.351 z-score
GACGGACTGGGCTTCGGGACGTGCTAG: -0.637 z-score
GACGGTCTCCTTCTCCTGAAGTGCTAG: 0.355 z-score
TTAGATATCAGTATCGATTCGTGCTAG: 4.41 z-score
GACGGTATCGTTTTCGGGACGTGCTAG: 4.44 z-score
TTAGGTTTCGGGACTGGGCTAGTGCTA: 6.86 z-score
TTAGGTTCCGGTTTCGGGTAGTGCTAG: 6.66 z-score

For quick reference, copied from above (sample 5):
TAAGGACTGCTACTGCTTTAGTGCTAG: -0.492 z-score
TCATTATTCTAGCCTCCAACTGTGCTA: 1.11 z-score
TTAGATATCAGTATCGATTCGTGCTAG: 4.41 z-score
GACGATTTCGGGTATAGAGACGTGCTA: 0.79 z-score
CACGGTCTCCTTCTCCTGACGTGCTAG: 0.558 z-score
TTAGATTTCGGGTTTCGATTAGTGCTA: 5.74 z-score
TTAGAACCGAGTATCGATTAGTGCTAG: 4.06 z-score
GACGGACTGGGCTTCGGGACGTGCTAG: -0.637 z-score
TTAGGTTTCGGGACTGGGCTAGTGCTA: 6.86 z-score
AGCAGGGCTGATGCTCCCCTGTGCTAG: -1.21 z-score
